Experimental data collected from several papers.
Numbered parts are unrelated; each lists some results of a single study. Numbers after ± are the reported error.

Block 1 — mode: inhibitor; concentration: 20 µM; quantity: inhibition
Target: Replicase polyprotein 1ab, nsp13 helicase (rep, Severe acute respiratory syndrome coronavirus 2, UniProt P0DTD1)
N[C@H](Cc1c[nH]cn1)C(=O)O: 4.83%
O=C(CCc1ccc(O)cc1)c1c(O)cc(O)cc1O: 0.23%
CC(C)(C)NCC(O)c1cc(Cl)c(N)c(Cl)c1 (centres unmarked): -0.27%
CCN(CC)CCNC(=O)c1ccccc1I: 1%
O=C(C[S+]([O-])C(c1ccccc1)c1ccccc1)NO (centres unmarked): 1.78%
CCOc1ccc(-n2c([C@@H](C)N(Cc3cccnc3)C(=O)Cc3ccc(OC(F)(F)F)cc3)nc3ncccc3c2=O)cc1 (racemic): 9.25%
CC(C)(C)[C@]1(O)C[C@@H]2OC(=O)C[C@@]23C(=O)O[C@@H]2OC(=O)[C@H](O)[C@]213: 5.24%
CO[C@H]1/C=C/O[C@@]2(C)Oc3c(C)c(O)c4c(O)c(c5c(nc6cc(C)ccn65)c4c3C2=O)NC(=O)/C(C)=C\C=C\[C@H](C)[C@H](O)[C@@H](C)[C@@H](O)[C@@H](C)[C@H](OC(C)=O)[C@@H]1C: 4.2%
Clc1ccc(C(OCCN2CCCCC2)c2ccccc2)cc1 (centres unmarked): 6.58%
Cn1cc(C(=O)c2cccc3ccccc23)cc1C(=O)O: 1.58%
O=C(Nc1cccnn1)N1CCC(=Cc2cccc(Oc3ccc(C(F)(F)F)cn3)c2)CC1: 10.6%
CN(C(=O)CN(CCO)CC(=O)N(C)C(C)(C)Cc1ccccc1)C(C)(C)Cc1ccccc1: 2.31%
O=C1OC2(c3ccc(O)cc3Oc3cc(O)ccc32)c2ccccc21: -5.56%
CCOC(=O)Nc1ccc(NCc2c(C)cc(C)cc2C)cc1N: 9.64%

Further values, each from its own experiment
CC1(C)CCC2=C(O1)c1ccccc1C(=O)C2=O
EC50 (SARS-CoV-2; virus-induced cytopathic effect; Vero E6, USA-WA1/2020; 72 h): > 20 µM

Nc1ncnc2c([C@@H]3N[C@H](CO)[C@@H](O)[C@H]3O)c[nH]c12
inhibition (Chikungunya virus; viral replication; HeLa, AF 15561; 0.8 µM): 16.6%

CN(C)c1ccc(N(Cc2cc(Cl)cs2)C(=O)Cc2cncc3ccccc23)cc1
inhibition (SARS-CoV-2; viral replication, measured: nucleocapsid; NHBE, Omicron BA.5; 1 µM, 3 h pretreatment): 73%

CO[C@H]1CC[C@H](n2c([C@@H]3CCCC(=O)N3c3ccc(F)c(F)c3)nc3cc(-c4c(C)noc4C)ccc32)CC1 (relative stereo)
EC50 (SARS-CoV-2; viral replication, GFP plate reader screen; BetaCov/Belgium/GHB-03021/2020; cell-based): > 100 µM

N=C(N)N=Nc1ccc(NNC(=N)S)cc1
IC50 (Replicase polyprotein 1ab, main protease (rep, Severe acute respiratory syndrome coronavirus 2, UniProt P0DTD1); enzyme activity, inhibitor): 9.3 µM

CC(C)(C)NC[C@H](O)COc1ccccc1C1CCCC1
EC50 (SARS-CoV-2; viral replication, GFP plate reader screen; cell-based): 15.1 µM

Cn1cnc(Cn2c(=O)[nH]/c(=N\c3cc4cn(C)nc4cc3Cl)n(Cc3cc(F)c(F)cc3F)c2=O)n1
Vz/F (human, moderate renal impairment, plasma; oral, 375 mg single dose): 19.9 L

COc1ccc(N(Cc2cc(Cl)cs2)C(=O)Cc2cncc3ccccc23)cc1
EC50 (SARS-CoV-2; Calu-3, B.1.617.2 Delta): 9.4 µM

Nc1ccccc1-c1nc(-c2ccc(C(F)(F)F)cc2)no1
inhibition (Spike glycoprotein, receptor-binding domain (Severe acute respiratory syndrome coronavirus 2, UniProt P0DTC2); spike RBD binding to ACE2, inhibitor, ELISA; 10 µM): -98.1 ± 18.5%

CS(=O)(=O)N(Cc1ccccc1)CC1CCOC2(CCN(C(=O)C3(c4ccccc4)CCCC3)CC2)C1 (centres unmarked)
EC50 (Venezuelan equine encephalitis virus; viral replication): > 39.8 µM

COc1ccc(C[C@@H]2c3cc(Oc4cc(C[C@@H]5c6cc(O)c(OC)cc6CCN5C)ccc4O)c(OC)cc3CCN2C)cc1
CPE inhibition (SARS-CoV-2; viral replication; Vero E6; 3.125 µM): 0%

CC(C[N+](C)(C)C)OC(N)=O (centres unmarked)
GFP-positive cells (HEK-293T; pseudovirus infection; VSV pseudotyped with SARS-CoV-2 spike; 10 µM, 16 h; reference: vehicle-treated): 85.3%

O=C(/C=C/c1ccc(O)c(O)c1/C=C/c1ccc(O)c(O)c1)O[C@H](Cc1ccc(O)c(O)c1)C(=O)O
inhibition (SARS-CoV-2; cytopathic effect; Vero E6; 25 µM, first run): 0%

NC(=O)c1ncn([C@@H]2O[C@H](CO)[C@@H](O)[C@H]2O)n1
IC50 (Mammarenavirus lassaense; viral replication, inhibitor; Vero; 48 h): 9 µg/mL

NCC1CCOC2(CCN(C(=O)C3(c4ccccc4)CCCC3)CC2)C1 (centres unmarked)
EC50 (Venezuelan equine encephalitis virus; viral replication): > 39.8 µM

Excerpt of the above (block 1):
O=C(Nc1cccnn1)N1CCC(=Cc2cccc(Oc3ccc(C(F)(F)F)cn3)c2)CC1: 10.6%
CN(C(=O)CN(CCO)CC(=O)N(C)C(C)(C)Cc1ccccc1)C(C)(C)Cc1ccccc1: 2.31%
O=C1OC2(c3ccc(O)cc3Oc3cc(O)ccc32)c2ccccc21: -5.56%
